Measurements collected from several papers.
± marks the error that the study gave.
Cytochrome P450 2A13: Cytochrome P450 2A13 (Homo sapiens, UniProt Q16696)
Sequence of UniProt Q16696 (whole entry, looked up): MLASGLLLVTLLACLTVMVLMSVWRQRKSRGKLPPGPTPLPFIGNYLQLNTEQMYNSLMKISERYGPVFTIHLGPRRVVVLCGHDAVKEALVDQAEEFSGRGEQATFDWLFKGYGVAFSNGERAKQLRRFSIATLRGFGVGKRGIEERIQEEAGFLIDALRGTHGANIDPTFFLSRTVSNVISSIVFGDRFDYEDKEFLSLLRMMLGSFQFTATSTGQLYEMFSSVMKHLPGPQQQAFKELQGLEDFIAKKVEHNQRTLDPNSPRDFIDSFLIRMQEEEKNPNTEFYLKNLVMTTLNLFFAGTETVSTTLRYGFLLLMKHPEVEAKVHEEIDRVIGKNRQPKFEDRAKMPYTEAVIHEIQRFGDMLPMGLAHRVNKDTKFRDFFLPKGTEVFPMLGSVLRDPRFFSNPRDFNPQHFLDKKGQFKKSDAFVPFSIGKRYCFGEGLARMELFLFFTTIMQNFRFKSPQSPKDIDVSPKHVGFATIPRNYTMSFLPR
ACTA1 pyrene-labeled: Actin, alpha skeletal muscle, pyrene-labeled (ACTA1, Oryctolagus cuniculus, UniProt P68135)
Uncharacterized protein: Uncharacterized protein (Equus caballus, UniProt Q38RB9)
gag-pol reverse transcriptase: Gag-Pol polyprotein, reverse transcriptase (gag-pol, Human immunodeficiency virus 1, UniProt P03366)
Sequence of UniProt Q8BHN3 (whole entry, looked up): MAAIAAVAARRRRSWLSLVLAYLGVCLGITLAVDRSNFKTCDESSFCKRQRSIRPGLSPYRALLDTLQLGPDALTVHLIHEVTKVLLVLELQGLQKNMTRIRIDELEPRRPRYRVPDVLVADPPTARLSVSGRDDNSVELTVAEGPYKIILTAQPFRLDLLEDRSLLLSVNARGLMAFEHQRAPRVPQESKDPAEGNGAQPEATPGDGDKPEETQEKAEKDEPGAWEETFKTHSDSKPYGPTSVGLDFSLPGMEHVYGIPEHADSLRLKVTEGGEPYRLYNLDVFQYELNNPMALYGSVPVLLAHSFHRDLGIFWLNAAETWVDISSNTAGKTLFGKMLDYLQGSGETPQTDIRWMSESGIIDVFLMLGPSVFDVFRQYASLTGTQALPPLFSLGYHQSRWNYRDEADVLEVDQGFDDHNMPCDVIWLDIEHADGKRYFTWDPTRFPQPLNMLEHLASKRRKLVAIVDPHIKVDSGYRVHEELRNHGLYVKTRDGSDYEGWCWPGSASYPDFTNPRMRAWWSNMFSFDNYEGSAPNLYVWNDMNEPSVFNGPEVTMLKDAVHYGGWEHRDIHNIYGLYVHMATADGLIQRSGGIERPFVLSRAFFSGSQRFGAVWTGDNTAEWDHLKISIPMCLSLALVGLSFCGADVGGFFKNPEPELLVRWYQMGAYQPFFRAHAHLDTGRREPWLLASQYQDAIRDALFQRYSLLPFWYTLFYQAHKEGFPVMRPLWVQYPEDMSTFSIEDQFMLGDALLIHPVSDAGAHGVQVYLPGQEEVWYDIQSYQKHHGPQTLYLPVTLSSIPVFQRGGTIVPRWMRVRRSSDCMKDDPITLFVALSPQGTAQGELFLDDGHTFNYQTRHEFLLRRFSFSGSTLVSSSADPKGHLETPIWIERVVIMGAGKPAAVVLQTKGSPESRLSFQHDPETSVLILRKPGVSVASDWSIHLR
Sequence of UniProt P05183 (whole entry, looked up): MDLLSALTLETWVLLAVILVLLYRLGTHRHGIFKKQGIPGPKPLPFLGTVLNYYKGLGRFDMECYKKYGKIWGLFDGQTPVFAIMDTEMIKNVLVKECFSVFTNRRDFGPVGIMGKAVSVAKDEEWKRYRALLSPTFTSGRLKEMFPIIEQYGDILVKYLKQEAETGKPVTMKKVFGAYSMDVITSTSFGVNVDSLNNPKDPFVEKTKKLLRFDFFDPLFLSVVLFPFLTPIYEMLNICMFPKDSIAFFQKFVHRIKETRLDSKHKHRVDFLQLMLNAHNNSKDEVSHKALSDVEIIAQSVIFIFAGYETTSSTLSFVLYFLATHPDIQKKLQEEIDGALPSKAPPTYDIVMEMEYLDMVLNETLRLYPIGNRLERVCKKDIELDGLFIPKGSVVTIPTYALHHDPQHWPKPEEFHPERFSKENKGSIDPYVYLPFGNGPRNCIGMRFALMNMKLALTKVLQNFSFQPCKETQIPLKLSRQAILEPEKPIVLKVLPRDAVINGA
Sequence of UniProt P27338 (whole entry, looked up): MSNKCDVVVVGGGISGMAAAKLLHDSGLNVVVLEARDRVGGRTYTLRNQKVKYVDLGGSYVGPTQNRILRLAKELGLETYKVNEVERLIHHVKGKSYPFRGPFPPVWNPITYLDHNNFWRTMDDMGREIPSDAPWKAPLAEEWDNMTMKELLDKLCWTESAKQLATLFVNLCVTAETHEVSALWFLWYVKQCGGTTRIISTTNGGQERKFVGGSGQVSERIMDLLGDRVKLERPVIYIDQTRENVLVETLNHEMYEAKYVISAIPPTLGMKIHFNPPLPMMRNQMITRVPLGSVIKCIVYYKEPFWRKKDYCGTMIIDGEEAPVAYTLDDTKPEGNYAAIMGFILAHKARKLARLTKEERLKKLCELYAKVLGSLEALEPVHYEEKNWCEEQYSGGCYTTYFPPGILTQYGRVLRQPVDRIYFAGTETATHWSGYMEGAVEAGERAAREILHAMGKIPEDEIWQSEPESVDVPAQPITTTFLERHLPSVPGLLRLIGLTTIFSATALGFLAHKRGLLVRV
Sequence of UniProt Q12791 (whole entry, looked up): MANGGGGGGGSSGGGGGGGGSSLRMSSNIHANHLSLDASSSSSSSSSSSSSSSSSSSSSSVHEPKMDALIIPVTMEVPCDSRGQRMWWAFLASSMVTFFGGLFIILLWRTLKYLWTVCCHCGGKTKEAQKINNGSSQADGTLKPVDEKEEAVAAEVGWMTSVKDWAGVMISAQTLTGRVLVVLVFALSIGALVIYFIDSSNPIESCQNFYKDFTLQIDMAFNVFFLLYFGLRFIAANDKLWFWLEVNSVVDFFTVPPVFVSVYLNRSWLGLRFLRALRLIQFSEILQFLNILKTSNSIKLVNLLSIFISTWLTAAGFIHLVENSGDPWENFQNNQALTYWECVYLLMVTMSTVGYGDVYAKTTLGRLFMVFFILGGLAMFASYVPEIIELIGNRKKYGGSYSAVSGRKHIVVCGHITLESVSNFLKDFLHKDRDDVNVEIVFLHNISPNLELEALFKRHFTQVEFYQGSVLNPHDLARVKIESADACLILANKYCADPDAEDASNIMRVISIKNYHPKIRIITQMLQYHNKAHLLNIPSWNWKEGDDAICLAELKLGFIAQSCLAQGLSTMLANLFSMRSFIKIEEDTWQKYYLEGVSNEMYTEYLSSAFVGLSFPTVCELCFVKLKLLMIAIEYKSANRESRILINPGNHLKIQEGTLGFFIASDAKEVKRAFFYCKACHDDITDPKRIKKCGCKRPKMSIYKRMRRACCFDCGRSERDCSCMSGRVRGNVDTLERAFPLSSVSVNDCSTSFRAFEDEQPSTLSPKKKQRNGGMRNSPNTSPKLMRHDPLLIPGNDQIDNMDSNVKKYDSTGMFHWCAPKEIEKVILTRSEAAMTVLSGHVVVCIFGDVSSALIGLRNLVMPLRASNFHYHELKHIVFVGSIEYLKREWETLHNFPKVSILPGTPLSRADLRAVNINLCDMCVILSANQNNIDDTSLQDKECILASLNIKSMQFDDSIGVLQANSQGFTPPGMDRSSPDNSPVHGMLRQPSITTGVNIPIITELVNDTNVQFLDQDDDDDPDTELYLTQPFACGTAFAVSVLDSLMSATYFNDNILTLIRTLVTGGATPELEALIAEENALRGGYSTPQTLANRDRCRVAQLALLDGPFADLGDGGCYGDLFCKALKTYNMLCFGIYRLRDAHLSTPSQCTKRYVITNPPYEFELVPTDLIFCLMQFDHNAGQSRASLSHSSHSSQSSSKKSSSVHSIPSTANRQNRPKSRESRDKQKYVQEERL
Sequence of UniProt Q99436 (whole entry, looked up): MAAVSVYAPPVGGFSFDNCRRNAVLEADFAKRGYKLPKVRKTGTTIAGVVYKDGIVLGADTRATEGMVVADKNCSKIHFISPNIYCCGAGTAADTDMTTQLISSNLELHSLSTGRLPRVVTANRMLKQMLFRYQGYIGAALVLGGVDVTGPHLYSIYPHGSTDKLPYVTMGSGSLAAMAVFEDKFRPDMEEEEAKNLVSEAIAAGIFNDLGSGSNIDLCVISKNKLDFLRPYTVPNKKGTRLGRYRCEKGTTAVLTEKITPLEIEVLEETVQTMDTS
Sequence of UniProt Q01959 (whole entry, looked up): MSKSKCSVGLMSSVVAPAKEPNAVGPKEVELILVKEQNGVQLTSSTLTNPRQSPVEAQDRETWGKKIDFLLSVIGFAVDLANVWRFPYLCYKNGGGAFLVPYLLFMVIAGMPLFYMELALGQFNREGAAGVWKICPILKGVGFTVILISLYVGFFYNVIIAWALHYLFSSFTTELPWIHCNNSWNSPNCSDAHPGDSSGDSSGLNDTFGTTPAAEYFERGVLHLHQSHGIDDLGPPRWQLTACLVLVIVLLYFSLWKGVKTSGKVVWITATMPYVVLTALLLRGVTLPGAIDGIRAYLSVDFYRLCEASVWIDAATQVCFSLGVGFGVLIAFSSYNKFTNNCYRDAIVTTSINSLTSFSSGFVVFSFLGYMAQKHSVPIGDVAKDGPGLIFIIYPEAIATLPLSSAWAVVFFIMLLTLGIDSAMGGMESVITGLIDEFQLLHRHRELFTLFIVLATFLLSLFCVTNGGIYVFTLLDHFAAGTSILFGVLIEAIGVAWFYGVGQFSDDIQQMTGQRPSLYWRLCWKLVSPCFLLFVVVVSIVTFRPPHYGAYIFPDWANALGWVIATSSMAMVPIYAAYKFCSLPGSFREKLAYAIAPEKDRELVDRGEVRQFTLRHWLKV
Sequence of UniProt P69848 (whole entry, looked up): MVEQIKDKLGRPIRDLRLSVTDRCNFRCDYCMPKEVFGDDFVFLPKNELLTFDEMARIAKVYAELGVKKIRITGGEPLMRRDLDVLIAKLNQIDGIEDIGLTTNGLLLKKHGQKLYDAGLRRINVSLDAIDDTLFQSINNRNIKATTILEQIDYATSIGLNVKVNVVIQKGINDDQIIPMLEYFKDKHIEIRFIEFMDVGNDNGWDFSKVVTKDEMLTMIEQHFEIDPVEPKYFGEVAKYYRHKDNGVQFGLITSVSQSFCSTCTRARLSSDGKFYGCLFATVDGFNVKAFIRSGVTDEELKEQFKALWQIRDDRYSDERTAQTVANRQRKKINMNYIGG

`C#Cc1cc2cccc3ccc4cccc1c4c32` has an IC50 of over 80 µM (Cytochrome P450 2A13; enzyme activity, inhibitor; 20 min, pH 7.4).
With `CO[C@]1([C@@H]2CSC(=O)N2C)C[C@H]2C[C@@H](CC[C@H](C)/C=C\C=C\CC/C(C)=C\C(=O)O2)O1` the IC50 was over 10 µM (ACTA1 pyrene-labeled; actin polymerization, pyrene actin).
`O=[N+]([O-])c1cc(-c2ccccc2)ccc1NCCCCCCN1C[C@H](O)[C@@H](O)[C@H](O)[C@H]1CO` has an IC50 of under 0.001 µM (Ganab (Mus musculus, UniProt Q8BHN3); enzyme activity, inhibitor; with: 4-methylumbelliferyl substrate).
With `COc1cc(Nc2ncc(F)c(Nc3ccc4c(n3)NC(=O)C(C)(C)O4)n2)cc(OC)c1OC` the IC50 was over 10 µM (MAOB (Homo sapiens, UniProt P27338)).
`CC[C@H](C)[C@H](NC(=O)[C@H](CC(N)=O)NC(=O)[C@H](CO)NC(=O)[C@@H](NC(=O)[C@H](CCCCN)NC(=O)[C@@H](NC(=O)[C@H](Cc1ccc(O)cc1)NC(=O)[C@H](CC(=O)O)NC(=O)[C@@H](N)CO)C(C)C)C(C)C)C(=O)O` has an IC50 of 0.00066 µM (Uncharacterized protein; peptide binding, competitor, competitive radioligand binding; purified horse MHC class I; pH 7).
For `COc1ccc2c(c[n+](C)c3c4cc5c(cc4ccc23)OCO5)c1OC`, the IC50 was 17.7 µM (Cytochrome P450 3A2 (Cyp3a2, Rattus norvegicus, UniProt P05183); enzyme activity, inhibitor; Sprague-Dawley rat, male; 30 (unit not given), pH 7.4).
For `CCOC(=O)[C@H]1Cc2c(cc([N+](=O)[O-])cc2[N+](=O)[O-])[C@@H](O)[C@@]12C(=O)Nc1cccc(Br)c12`, the IC50 was 1.4 ± 0.13 µM (MDM2 (Homo sapiens, UniProt Q00987)).
`O=C1CSC(c2cccc(Br)c2)N1c1nc(-c2ccc(S(=O)(=O)N3CCOCC3)cc2)cs1` (centres unmarked) gave an IC50 of over 4 µM (gag-pol reverse transcriptase).
For `C/C1=C/C(=O)O[C@@H]2C[C@@H](CC[C@H](C)/C=C\C=C\CC1)O[C@@](O)([C@@H]1CSC(=O)N1Cc1ccccc1)C2`, the IC50 was 0.445 ± 0.079 µM (ACTA1 pyrene-labeled; actin polymerization, pyrene actin).
For `O=c1cc(-c2ccccc2)oc2cc(O)ccc12`, the IC50 was 0.4 to 10 µM (Cytochrome P450 2A13; enzyme activity, inhibitor; 20 min, pH 7.4).
With `O=C1CSC(c2c(F)cccc2Cl)N1c1nc(-c2ccc(S(=O)(=O)N3CCCC3)cc2)cs1` (centres unmarked) the IC50 was over 4 µM (gag-pol reverse transcriptase).
With `NC(=NCc1ccccc1)NC(=O)c1nc(Cl)c(N2CCCCCC2)nc1N` the IC50 was 22 ± 4 µM (Genome polyprotein, 3D RNA polymerase (Coxsackievirus B3, UniProt P03313); RNA polymerase activity, inhibitor, single AMP incorporation; no Mg2+ preincubation).
The IC50 of `COc1ccc(C[C@H](NC(=O)[C@H](C)NC(=O)CN2CCOCC2)C(=O)N[C@@H](CC2CCC(C)CC2)C(=O)[C@@]2(C)CO2)cc1` (some centres unmarked) is reported as 6.42 µM (PSMB7 (Homo sapiens, UniProt Q99436); inhibitor, competitive ABPP; Raji cell lysate; constitutive proteasome β2c).
For `CN(C)C(=O)C(CCN1CCC(O)(c2ccc(Cl)cc2)CC1)(c1ccccc1)c1ccccc1`, the IC50 was 15.8 ± 5.9 µM (Calcium-activated potassium channel subunit alpha-1, with LRRC26 γ1 subunit (KCNMA1, Homo sapiens, UniProt Q12791); BK channel conductance, inhibitor, inside-out patch clamp; BKα/γ1, Vm -10 mV, nominally Ca2+-free).
The IC50 of `Nc1ncnc2c1ncn2[C@@H]1O[C@H](COP(=O)(O)OP(=O)(O)OP(=O)(O)O)[C@@H](O)[C@H]1O` is reported as 1820 ± 142 µM (GTP 3',8-cyclase (moaA, Staphylococcus aureus, UniProt P69848); enzyme activity, GTP-competitive inhibitor; pH 7.6, with: GTP 10 µM).
With `O=c1cc(-c2ccccc2)oc2c1ccc1ccccc12` the IC50 was 15 to 80 µM (Cytochrome P450 2A13; enzyme activity, inhibitor; 20 min, pH 7.4).
For `CC[C@H](C)[C@H](NC(=O)[C@H](CCC(N)=O)NC(=O)[C@@H]1CCCN1C(=O)[C@H](CO)NC(=O)[C@@H](NC(=O)[C@H](CO)NC(=O)CNC(=O)[C@H](CCC(=O)O)NC(=O)[C@@H](NC(=O)[C@H](CC(=O)O)NC(=O)[C@@H](N)CCCCN)C(C)C)[C@@H](C)O)C(=O)O`, the IC50 was 0.043 µM (Uncharacterized protein; peptide binding, competitor, competitive radioligand binding; purified horse MHC class I; pH 7).
`CSCC[C@H](NC(=O)[C@@H](NC(=O)[C@H](Cc1ccccc1)NC(=O)[C@H](Cc1c[nH]c2ccccc12)NC(=O)[C@H](C)NC(C)=O)C(C)C)C(=O)N[C@@H](Cc1ccccc1)C(=O)N[C@@H](Cc1ccc(O)cc1)C(N)=O` has an IC50 of 4.87 µM (Programmed cell death 1 ligand 1, with PD-1 (CD274, Homo sapiens, UniProt Q9NZQ7); PD-1/PD-L1 binding, ELISA; with: biotinylated human PD-1).
`CNC(C)Cc1ccc2nonc2c1` (centres unmarked) gave an IC50 of 4 ± 1.5 µM (SLC6A3 (Homo sapiens, UniProt Q01959)).
The IC50 of `O=C1CSC(c2ccc(Cl)cc2)N1c1cccc(S(=O)(=O)Nc2nccs2)c1` (centres unmarked) is reported as over 4 µM (gag-pol reverse transcriptase).
The IC50 of `CC(C)C[C@H](NC(=O)[C@H](CO)NC(=O)[C@H](CCCCN)NC(=O)[C@@H](NC(=O)[C@H](CC(C)C)NC(=O)CNC(=O)[C@H](C)NC(=O)[C@H](CC(=O)O)NC(=O)[C@@H](N)CCCCN)C(C)C)C(=O)O` is reported as 0.02 µM (Uncharacterized protein; peptide binding, competitor, competitive radioligand binding; purified horse MHC class I; pH 7).
`C#Cc1ccc2c(ccc3ccccc32)c1` has an IC50 of over 100 µM (Cytochrome P450 2A13; enzyme activity, inhibitor; 20 min, pH 7.4).
`COc1cc(C(=O)N2CC[C@@H](O)[C@@H](N)C2)cc2nc(-c3cc4ccccc4n3CC3CC3)n(C)c12` has an IC50 of over 31.6 µM (DRD1 (Homo sapiens, UniProt P21728); antagonist, TR-FRET).
With `CCCC[C@H]1C(=O)N(C)[C@@H](CCCC)C(=O)N[C@@H](CC(C)C)C(=O)N[C@H](C(=O)NCC(N)=O)CSCC(=O)N[C@@H](Cc2ccc(O)cc2)C(=O)N(C)[C@@H](C)C(=O)N[C@@H](CC(N)=O)C(=O)N2[C@@H](C[C@@H]3CCCC[C@@H]32)C(=O)N[C@@H](Cc2c[nH]cn2)C(=O)N[C@@H](CC(C)C)C(=O)N2C[C@H](O)C[C@H]2C(=O)N[C@@H](Cc2c[nH]c3ccccc23)C(=O)N[C@@H](CCN)C(=O)N[C@@H](Cc2cn(CC(=O)O)c3ccccc23)C(=O)N1C` the IC50 was 0.0204 µM (CD274 (Homo sapiens, UniProt Q9NZQ7); PD-1/PD-L1 binding, inhibitor, TR-FRET).
The IC50 of `O=C1C(P(=O)(O)O)CC(O)N1O` (centres unmarked) is reported as about 0.02 µM (enolase (ENO1 and ENO2); enzyme activity, inhibitor, NADH-linked; with: 2-phosphoglycerate).
For `CC(C)C[C@H]1CNC(=O)N2C[C@H](C[C@H]2C(N)=O)SCCCCCCSC[C@H](NC(=O)[C@H](Cc2ccccc2)NC(=O)[C@H](CO)NC(=O)[C@@H](N)[C@@H](C)O)C(=O)N[C@@H](CCC(=O)O)C(=O)N[C@@H](Cc2ccc(O)cc2)C(=O)N[C@@H](Cc2c[nH]c3ccccc23)C(=O)N[C@@H](C)C(=O)N[C@@H](CC(C)C)CNC(=O)N1`, the IC50 was 0.0747 µM (Protein Mdm4, with p53 (MDM4, Homo sapiens, UniProt O15151); p53 binding, TR-FRET).
The IC50 of `COc1ncccc1-c1cnn2ccc(N3CCN(C(=O)OC(C)C)CC3)nc12` is reported as over 30 µM (MAOA (Homo sapiens, UniProt P21397); liability screen).
`C[C@H]1CN(c2n[nH]c3nc(N[C@H]4CC[C@H](NS(=O)(=O)CCC(F)(F)F)CC4)ncc23)CCO1` has an IC50 of at least 20 µM (DYNC1H1 (Homo sapiens, UniProt Q14204); biochemical).
For `O=C1CSC(c2cccc(Br)c2)N1c1cccc(S(=O)(=O)Nc2nccs2)c1` (centres unmarked), the IC50 was over 4 µM (gag-pol reverse transcriptase).

Some of these lines once more:
For `COc1ccc2c(c[n+](C)c3c4cc5c(cc4ccc23)OCO5)c1OC`, the IC50 was 17.7 µM (Cytochrome P450 3A2 (Cyp3a2, Rattus norvegicus, UniProt P05183); enzyme activity, inhibitor; Sprague-Dawley rat, male; 30 (unit not given), pH 7.4).
For `CCOC(=O)[C@H]1Cc2c(cc([N+](=O)[O-])cc2[N+](=O)[O-])[C@@H](O)[C@@]12C(=O)Nc1cccc(Br)c12`, the IC50 was 1.4 ± 0.13 µM (MDM2 (Homo sapiens, UniProt Q00987)).
`O=C1CSC(c2cccc(Br)c2)N1c1nc(-c2ccc(S(=O)(=O)N3CCOCC3)cc2)cs1` (centres unmarked) gave an IC50 of over 4 µM (gag-pol reverse transcriptase).
For `C/C1=C/C(=O)O[C@@H]2C[C@@H](CC[C@H](C)/C=C\C=C\CC1)O[C@@](O)([C@@H]1CSC(=O)N1Cc1ccccc1)C2`, the IC50 was 0.445 ± 0.079 µM (ACTA1 pyrene-labeled; actin polymerization, pyrene actin).
